Experimental data of several laboratories.
Numbered parts are unrelated; each lists some results of a single study.

Study 1
Target: Fragile X messenger ribonucleoprotein 1, C-terminal low-complexity region (Fmr1, Mus musculus, UniProt P35922)
Technique: RNA Bind-n-Seq
Molecule type: RNA
Sample: in vitro
Tested at: 200 nM
Notes: whole 134-nt RNA, ends assumed
Together with: 150 mM LiCl
Baseline: input library
Reading: higher = stronger binding
All molecules: 7-deaza-guanosine replaces G
Constant ends, left off below: GGGAGUUCUACAGUCCGACGAUC … UGGAAUUCUCGGGUGUCAAGG
Strand | log2 enrichment
CACAGACAACACGCACCCACACAGACACAGAGGGAAGGGGUUGGGAUGGGGACAAAGUGCACAGCAGGGCGGGGUAGGACCCCAGCCCCU | 0.217
CUGUGCUACACAUCGUAUGUACCGAAUCGGGAAAAAAAGGGAAAAAAAGGGAAAAAAAGGGGAAAGUAUUAUGUUACGCCGUUCGGAUCU | 0.312
CACAGACAACACGCACCCACACAGACACAGAGGGAAGGGGUUGGGAUGGGGACAGGGUGCACAGCACGGCGGGGUAGGACCCCAGCCCCU | -0.362
UCAAGUCCUGUGCUACACAUCGUAUGUACCGAAUCGGUUUGGUUUUUGGUUUGGAAAGUAUUAUGUUACGCCGUUCGGAUCUGCACUUCC | -1.45
CAAGUCCUGUGCUACACAUCGUAUGUACCGAAUCGGCCCGGCCCGGGGCCCGGGGAAAGUAUUAUGUUACGCCGUUCGGAUCUGCACUUC | -1.27
CCUCAAGUCCUGUGCUACACAUCGUAUGUACCGAAUCGGAGGGAGGGGAGGGGAAAGUAUUAUGUUACGCCGUUCGGAUCUGCACUUCCA | -1.14
UAACUUUAGAGGAGGAUCUGAUGGAUAUGGCAGUGGACGUGGAUUUGGGGAUGGCUAUAAUGGGUAUGGAGGAGGACCUGGAGGUGGUAA | 0.767
GUCCUGUGCUACACAUCGUAUGUACCGAAUCAAACCCAAACCCCCAAAUUUUUUUAAAAAAGUAUUAUGUUACGCCGUUCGGAUCUGCAC | 1.78
UGGCCCUGGUGGCAUGCGGGGAGGAAGAGGUGGCCUCAUGGAUCGUGGUGGUCCCGGUGGAAUCUUCAGAGGUGGCCGUGGUGGAGACAG | -0.217
CCUCAAGUCCUGUGCUACACAUCGUAUGUACCGAAUCGGCGGGCGGGGCGGGGAAAGUAUUAUGUUACGCCGUUCGGAUCUGCACUUCCA | 0.259
UCCUCAAGUCCUGUGCUACACAUCGUAUGUACCGAAUCGGUGGUGGAAAGGAAAGUAUUAUGUUACGCCGUUCGGAUCUGCACUUCCAGC | 0.694

Study 2
Target: RNA binding protein fox-1 homolog 2, RRM domain, GST-SBP tag (RBFOX2, Homo sapiens, UniProt O43251-10, residues 100-194)
Technique: RNA Bind-n-Seq
Molecule type: RNA
Sample: in vitro
Tested at: 365 nM
Notes: natural RNA segment, single round, ends assumed
Baseline: no-protein control
Reading: higher = stronger binding
Constant ends, left off below: GGGAGUUCUACAGUCCGACGAUC … UGGAAUUCUCGGGUGCCAA
Construct (chain): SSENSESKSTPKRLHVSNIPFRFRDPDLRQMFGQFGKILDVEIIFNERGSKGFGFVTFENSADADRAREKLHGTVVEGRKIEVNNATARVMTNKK
Strand | RBNS enrichment (R)
UCUUAUCCAAUAUAUCUUCUCAGAUGGGAUGACUGCGGGUCAGUGUACAGGAAGAGGCAGGCACUGGCUGGCUCAGCUCCACUCGGGUGGAGUGGAAGUGGCCAGACCAU | 0.279
CGUGAACCAACAGGGCCUGGCCUUCACUCCUCCAGGCCACAAUGCCCUGGGGUCAAGGGAAAGGAACUCUGUUAUCUUCUCAGAAUAAAUAUUACUGCCGCUCUAGAGGG | 0.786
UGAGAGGCGAGGAGGUAGUGGGUGAGGCUACCUGACUCACUUCAAAUGCAUGUUUUGAGAUGUUUGGAGAUUCAGCAAUUCUGUCUUCAUUGCUCCAGGAUCUGGUAUAC | 27.7
UAAAUAAAACAGUUAUCACAUUCCCACAACAACCUAAACACAGACUACCUCUCCCCUCAUCAGAUCAGCUAAGCUGUGAGGUUCUAAGAGGUCUAGGUGUGUUUAAAUUU | 0.359
AAAUACAUUUCUUAAGGUUAAAAGCAUGCACUUCCAUGCAUACUUGCUUUUGGGGAGAGUGGGGAGAAGACAUUCUAAUAAUCAGUUUGUGAAAUAGCUUCUGUUGGAAA | 0.65
AUAGAUUUCUAAUUUGUCCUACUCAUGUUAGGAGCAUUAUCUUUGAAGGUAAAACAUAGUGUAUCAUUGUGUAAACUCCCAGGCUUGAUGUAGCAGAAGAGAUCAUUUCU | 0.283
UGAAAUAUUAAAAGACAGAAUCCAAAGAACGCCUUUAACUCUAGUCUUAUUAGGAUGAUUUUCUAUUAUUAGGUCAAAAAGCUCUACCCAGGCAACAGACACAAUCUGUG | 0.31
GCACUGCUGAAGUUUUCACAAGUGGAGUGUUGAAGGUGAAUCAGUAGUCUUUGGAGUCUACAAGUGACUGUCAUUUUAAGCAACUCAUUAAAUAUUGGUUCAUUUUUUUU | 0.56
UCAGUGGAUCCUGUUAAGGAGUGCUUCCAGCCUCAGCCUGGGCCCCUCCCACCUGGCAUGGUAAGGGGGUAAGGGACGCUCAGGGAAGAGGUGCAUUCUCCGACCUCUGC | 4.16
AACGACAGCAACGAAAACUCCUUAAUCAGAACACUGAUCCAAUGAGGAAUGGAGCUUGUUUCUGUGACCCAGGAGAACUUAGUGCAAGACUACAGGAGUUAACAGAUGGC | 0.376
GAGAAAAAUGAAACCCACAUGCCGCCAUUUUCCUGAAUCAAAUUCUGCAGUGGAAUGGAGAGGAAAAUACUUCUAGGCAAGCAGCUAGACUGGUGAAUUGGGGGAAAUAG | 0.773
CCAAGGGCCUGAAUUUUAACUUCCUGUGCACAAUGUACCUUUUGAGAUGAUUCGAAGGGCCUUUCACUUUUAUUAAACAGUGACUUGUUUGACUGUGCUCCCUGGUCCUG | 0.446

Study 3
Target: Prothrombin, mature alpha-thrombin (F2, Homo sapiens, UniProt P00734)
Technique: aptamer microarray, sandwich
Molecule type: DNA with 2'F-ANA
Sample: in vitro
Tested at: 200 nM
Notes: whole 15-mer aptamer, many near background
Together with: Cy3 exosite-II aptamer, 400 nM
Reading: higher = stronger binding
Strand: GGTTGGTGTGGTTGG
Modification | mean fluorescence intensity
2'F-ANA at 1 2 4 5 9 13 15 | 48.3 a.u.
2'F-ANA at 4 7 9 11 12 15 | 418 a.u.
2'F-ANA at 1 2 3 4 6 7 9 11 12 | 225 a.u.
2'F-ANA at 1 2 4 6 7 9 10 11 12 14 | 61 a.u.
2'F-ANA at 1 2 7 8 11 13 14 | 56.1 a.u.
2'F-ANA at 5 7 8 10 11 12 14 | 45.6 a.u.
2'F-ANA at 2 4 7 8 9 10 11 13 | 97 a.u.
2'F-ANA at 1 3 4 6 9 10 11 12 14 | 58.5 a.u.
2'F-ANA at 2 5 6 8 10 13 14 | 50.2 a.u.
2'F-ANA at 2 3 4 5 7 9 12 14 | 52.2 a.u.
2'F-ANA at 2 5 6 8 11 12 13 15 | 87.2 a.u.
2'F-ANA at 2 3 5 6 7 8 9 10 13 14 | 51.9 a.u.
2'F-ANA at 1 3 4 5 6 7 10 12 15 | 50.4 a.u.
2'F-ANA at 1 3 9 13 | 234 a.u.
2'F-ANA at 2 3 5 6 7 9 11 13 15 | 66.9 a.u.
2'F-ANA at 1 2 5 7 9 | 58.6 a.u.
2'F-ANA at 3 5 6 8 10 11 13 14 15 | 57.3 a.u.
2'F-ANA at 3 5 6 7 11 13 15 | 76 a.u.
2'F-ANA at 3 4 9 10 12 13 15 | 284 a.u.
2'F-ANA at 2 5 6 7 8 9 11 12 15 | 125 a.u.

Study 4
Target: RING finger protein unkempt homolog, zinc fingers 1-6, SBP tag (UNK, Homo sapiens, UniProt Q9C0B0, residues 30-357)
Sequence of UniProt Q9C0B0 (30-357, looked up): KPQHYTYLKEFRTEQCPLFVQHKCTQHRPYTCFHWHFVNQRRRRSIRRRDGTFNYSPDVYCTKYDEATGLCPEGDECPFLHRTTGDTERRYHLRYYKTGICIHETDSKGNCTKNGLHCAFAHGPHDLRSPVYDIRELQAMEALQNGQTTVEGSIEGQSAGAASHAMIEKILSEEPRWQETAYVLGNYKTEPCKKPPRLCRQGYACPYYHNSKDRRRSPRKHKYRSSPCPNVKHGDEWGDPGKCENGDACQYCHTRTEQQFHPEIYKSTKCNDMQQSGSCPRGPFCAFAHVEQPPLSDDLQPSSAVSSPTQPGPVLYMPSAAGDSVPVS
Technique: RNA Bind-n-Seq
Molecule type: RNA
Sample: in vitro
Tested at: 100 nM
Notes: RNA with constant flanks, vertebrate orthologous sites, ends assumed
Baseline: input RNA pool
Reading: higher = stronger binding
Constant ends, left off below: GGGAGUUCUACAGUCCGACGAUC … CAACAGAGGAUUGAGCAUCA
Strand | bound/input enrichment [ratio]
UUCAAGUUCAUCUCUCAUAUGUCAAAAAUGGCUUCAAAUUUUUCAAUGACUAGUUUUAAUUAGCUCUGCCCUCGUGAAGUACAUUUAUAAUUCACCUCAAACAGAUUUGCCUGAGUUACU | 1.08
GGGUGGCGGGUGGGGGAAUCCCAUGCCCUGGCCUUGCCUCCCCUCCCUGCCACUCGCUCCUAGUUAUUAUUUUUUUUUUUAACCACCAUGUGAUUAAGGUCGGCGCUGCCUCACCCGACC | 5.63
AAAUAUACUUCAUGCCAUGGACUCCGUAUCGCACUGAUACUUUGAUAGAAUAUGCUUCUUUGGAGGACUUCCAAAAUGGACGCCAGCAGACAACGUAUAAACUCCCAAAUCGAGUGGAUG | 0.966
UGAAGAUGGUGGUUGUACAUUAUUUCAUUUAGAAAAUAUAAAACUUCAUUUUGUUUAAGCUAGGUGUUAAACUGGAAUAGCUAUUCUACCCUAGAGAAUGGGGCAGCUGUGCCCUUCCCU | 1.47
UGAAAGUUACAGACAAGAGCCUGAAAGUAGAAAUACAGGAUCCUGGUUAUCGUCAUCUCUAAGAAAUAGAUGUACACCUCUGUUCUCCAGAAGAAGGCGAGAAGGAAGAGAUGAAUCUGC | 0.281
GUGACUUUGGAAGUCCGCACUGUCUCAUUGCAGAUACUACUUAGCUCAGGGCCUGGUGGCUAGACAGCUUCUCUCCUUUCCAGUCGGAGGCCUCUGCCGCAAACAUGCUCCGCCAGAUCC | 0.556
AUUAAAUGUGUAUCAAAUGCUGGAUGUAACAUUAAACCAUCAUUUAGAAUAGAGGUUGUUAUAAUUAAGCAACAAAUGGGUUUCCUUAAACCAGAGAUGCACUGCCCUUGUCUGAAGUUC | 0.505
CUGUGAGGGUCUACUGACCACUCACUGUUAUAUCUGGGUAUAUCUGUAAACACUUUUGUCCCUAGUCUUUCUUGUACAAUUGAUGUUCUUCAAAAUCGUUAAUGUAUGACAGGGCUUAUG | 0.287
GACGCCCCUCACCCUGCCCUCGGCCAGGGCUAGGACCUCUGUUACUCCGAGGACCGGCAUUGACAACAACUUUUUGACAUUGUUAACCCAGGAAGAGAUGUGACUAACACUGGCAUCUCG | 0.278
GUGCUGUGUAUCCAUUUGAGGGGGUUCUCCUCUGAGCUGCCAAGAAGGAAGAAGCCUACCUAGAGCCCUUACAUAUCUGAUUAUACCAUUCUGGUCUGUUUCCUGCUUUUUCUUUUCUCU | 0.636
UAUUGAAUAGUAUUAAACAUUUUUGUCUUCCUUUACCUUUUAUCCCCUUUACCUAAUACUUAGUCUACUUUUUUAAAUUUCAGACUUCACUGCUCUUUGAAUUGAUAAUUCCAGUUUUCA | 4.41

Some of these lines once more (study 2):
Strand | RBNS enrichment (R)
UCUUAUCCAAUAUAUCUUCUCAGAUGGGAUGACUGCGGGUCAGUGUACAGGAAGAGGCAGGCACUGGCUGGCUCAGCUCCACUCGGGUGGAGUGGAAGUGGCCAGACCAU | 0.279
CGUGAACCAACAGGGCCUGGCCUUCACUCCUCCAGGCCACAAUGCCCUGGGGUCAAGGGAAAGGAACUCUGUUAUCUUCUCAGAAUAAAUAUUACUGCCGCUCUAGAGGG | 0.786
UGAGAGGCGAGGAGGUAGUGGGUGAGGCUACCUGACUCACUUCAAAUGCAUGUUUUGAGAUGUUUGGAGAUUCAGCAAUUCUGUCUUCAUUGCUCCAGGAUCUGGUAUAC | 27.7
UAAAUAAAACAGUUAUCACAUUCCCACAACAACCUAAACACAGACUACCUCUCCCCUCAUCAGAUCAGCUAAGCUGUGAGGUUCUAAGAGGUCUAGGUGUGUUUAAAUUU | 0.359
AAAUACAUUUCUUAAGGUUAAAAGCAUGCACUUCCAUGCAUACUUGCUUUUGGGGAGAGUGGGGAGAAGACAUUCUAAUAAUCAGUUUGUGAAAUAGCUUCUGUUGGAAA | 0.65
AUAGAUUUCUAAUUUGUCCUACUCAUGUUAGGAGCAUUAUCUUUGAAGGUAAAACAUAGUGUAUCAUUGUGUAAACUCCCAGGCUUGAUGUAGCAGAAGAGAUCAUUUCU | 0.283
UGAAAUAUUAAAAGACAGAAUCCAAAGAACGCCUUUAACUCUAGUCUUAUUAGGAUGAUUUUCUAUUAUUAGGUCAAAAAGCUCUACCCAGGCAACAGACACAAUCUGUG | 0.31
